Measured values gathered from unrelated publications.
pEC50, pIC50: −log10 of the molar value.

Structure (SMILES) | target or system | assay | system | setting | scale | measurement | result
CC(C)(C)c1cc(-c2ccc3cc4ccccc4nc3n2)nc(-c2ccc3cc4ccccc4nc3n2)c1.[Cl-].[Cl-].[Ru+2].c1ccc2cc3nc4c5cccnc5c5ncccc5c4nc3cc2c1 | B16-F10 | resazurin | – | with: light 633 nm, 20 mW, 100 J/cm2 | – | pEC50 | 4.30
Cc1ccccc1-n1nc(C(=O)Nc2cccc(C(N)=O)c2)cc1-c1cccnc1 | Genome polyprotein, NS2B-NS3 protease (dengue virus type 2, UniProt P29990) | reporter gene | HeLa | – | – | pEC50 | 5.01
Cc1ncsc1-c1ccc(C(C)NC(=O)C2CC(O)CN2C(=O)C(NC(=O)CCCCCCCCCCN2CCCC(Nc3ncc(Cl)c(Nc4ccccc4S(=O)(=O)C(C)C)n3)C2)C(C)(C)C)cc1 (stereo not shown) | 22Rv1 | RNA-seq, item: SLC2A12 mRNA | – | concentration not given | baseline: DMSO | log2 fold change | -1.85
C=CC(=O)Nc1cccc(Cn2ncc3cnc(Nc4cnn(CCOC)c4)nc32)c1 | human FAK | KINOMEscan | – | 100 nM | baseline: control | binding | 100%
COC1CN([C@H]2CC[C@H]([C@@]3(C)Oc4c(Cl)cc(C(=O)NCc5c(SC)cc(C)[nH]c5=O)c(C)c4O3)CC2)C1 | – | RNA-seq, item: SMPDL3A | human, whole blood | dose not given, 24 h | baseline: pretreatment baseline | log2 fold change | 1.52
CCN(CC)CC(=O)Nc1cccc(-n2cc(-c3ccc4ccc(-c5cn(-c6cccc(NC(=O)CN(CC)CC)c6)nn5)cc4c3)nn2)c1 | RCC4 | PCR angiogenesis array, item: ANGPT2 | – | 5 x IC50, 2 h, normoxia | baseline: untreated | fold regulation | -1.49
CC(C)c1ccc(N(C)c2ccc3c(c2)OCC[C@H]3CNc2cnccc2C(=O)O)cc1 | SCC-15 | cell viability | – | 7 days | – | pIC50 | ≤ 5.00
CN1CCCNC(=O)c2cccc(c2)C(=O)NCCCN(C)CCCNc2cccc3c2C(=O)c2cccc(c2C3=O)NCCC1 | SAS | RNA-Seq, item: C6orf52 mRNA | – | 1 µM, 6 h | baseline: untreated cells | log2 fold change | 4.15
Cn1ncc2cc(-c3cncc(Cl)c3N3CCC4(CCNC4=O)CC3)ccc21 | LS174T | gene expression, microarray, item: KRT14 mRNA | – | concentration not given, 4 h | baseline: untreated cells | log2 fold change | 3.12
CC(C)(C)c1cc(-c2ccc3cccnc3n2)nc(-c2ccc3cccnc3n2)c1.[Cl-].[Cl-].[Ru+2].c1ccc2cc3nc4c5cccnc5c5ncccc5c4nc3cc2c1 | B16-F10 | photocytotoxicity, resazurin | – | visible light 400-700 nm, 20 mW, 100 J/cm2 | – | pEC50 | 5.78
CC(=O)[O-].O.O.O.O.[Co+2].[O-]c1ccc(Br)cc1C=NCCN1CCOCC1 | – | FRAP | – | 120 µM | – | ferric reducing power | 26.4%
[Cl-].[Cl-].[Ru+2].c1cc(-c2ccc3cccnc3n2)nc(-c2ccc3cccnc3n2)c1.c1ccc2cc3nc4c5cccnc5c5ncccc5c4nc3cc2c1 | B16-F10 | resazurin | – | with: light 633 nm, 20 mW, 100 J/cm2 | – | pEC50 | 4.30
CNS(=O)(=O)Nc1nccc(Cc2c(C)c3ccc(Oc4ncccc4F)cc3oc2=O)c1F | RMG-I | cell viability, CellTiter-Glo | – | 7 days | – | pIC50 | 8.46

For quick reference, copied from above:
Structure (SMILES) | target or system | assay | system | setting | scale | measurement | result
C=CC(=O)Nc1cccc(Cn2ncc3cnc(Nc4cnn(CCOC)c4)nc32)c1 | human FAK | KINOMEscan | – | 100 nM | baseline: control | binding | 100%
